Results collected from several papers.
Compare with care: the assays were run in different laboratories. Several values in a cell are separate wells, animals, samples, runs or records. Numbers after ± are the reported error.

SMILES | system | setting | how to read | measurement | result
O=C(O)CSc1nnc(Br)n1-c1ccc(C2CC2)c2ccccc12 | KM mouse, chronic hyperuricaemia model | dose not given, day 14 |  | body weight | 32.1 g and 28.4 g and 36.4 g and 33.8 g and 28.1 g and 32.8 g
Cc1cccc(CNC(=O)c2cn(CCNC(=O)c3ccccc3Sc3c([N+](=O)[O-])ncn3C)c3cc4c(cc3c2=O)OCO4)n1 | Beagle dog, whole blood | 1 µM, 2 h |  | remaining compound | 67.6%
COc1ccc2c(=O)n(C)c(-c3ccccc3)nc2c1 | male Sprague-Dawley rat, small intestine | oral, 30 mg/kg, 0.5 h |  | tissue concentration | 300000 ng/g
N#Cc1ccc(C(c2ccc(C#N)cc2)n2cncn2)cc1 | human patients, tumour tissue at surgery | 12.5 mg daily |  | tumour concentration | 151 ± 13.4 ng/g
CC1CCN(CCCN2/C(=C/c3cc[n+](C)c4ccccc34)Sc3ccccc32)CC1 | human erythrocytes, 2% | 32 x MIC (S. aureus ATCC 29213), 1 h |  | hemolysis | < 5%
CCc1cc(C(=O)NC)c2nccc(N3CCc4c(cc(Cn5ccnc5)cc4-c4cn(C)nc4C(F)(F)F)C3=O)c2c1 | Sprague Dawley rats | oral, 100 mg/kg twice daily, 7 days |  | blood TP | 59.4 ± 3.8 g/L
Cc1ccc([C@@H]2O[C@H](CO)[C@@H](O)[C@H](O)[C@H]2O)cc1Cc1ccc(-c2ccc(F)cc2)s1 | Japanese type 2 diabetes patients | 25 mg, day 3, 24 h urine collection | relative to: baseline | urinary chloride excretion change | -11.1 mEq
C[C@@H](N)C1CCN(S(=O)(=O)c2cccc3cnccc23)CC1 | healthy volunteers | 250 mg, fasted |  | participants with hypotension | 16.7%
CNCc1ccc(-c2[nH]c3cc(F)cc4c3c2CCNC4=O)cc1 | human patients | oral, 600 mg twice daily, grade 1 |  | dizziness incidence | 11.5%
CC(C)=CC[C@@H](O)C1=CC(=O)c2c(O)ccc(O)c2C1=O | plasma | 500 ng/mL, 3 freeze-thaw cycles at -80 °C |  | measured concentration | 482 ± 12.4 ng/mL

A few entries again:
SMILES | system | setting | how to read | measurement | result
CC1CCN(CCCN2/C(=C/c3cc[n+](C)c4ccccc34)Sc3ccccc32)CC1 | human erythrocytes, 2% | 32 x MIC (S. aureus ATCC 29213), 1 h |  | hemolysis | < 5%
